# Published values collected from several papers.
# Numbered parts are unrelated; each lists some results of a single study. Positions count from the first letter of the parent shown.
# UniProt O00750, sequence (whole entry, looked up): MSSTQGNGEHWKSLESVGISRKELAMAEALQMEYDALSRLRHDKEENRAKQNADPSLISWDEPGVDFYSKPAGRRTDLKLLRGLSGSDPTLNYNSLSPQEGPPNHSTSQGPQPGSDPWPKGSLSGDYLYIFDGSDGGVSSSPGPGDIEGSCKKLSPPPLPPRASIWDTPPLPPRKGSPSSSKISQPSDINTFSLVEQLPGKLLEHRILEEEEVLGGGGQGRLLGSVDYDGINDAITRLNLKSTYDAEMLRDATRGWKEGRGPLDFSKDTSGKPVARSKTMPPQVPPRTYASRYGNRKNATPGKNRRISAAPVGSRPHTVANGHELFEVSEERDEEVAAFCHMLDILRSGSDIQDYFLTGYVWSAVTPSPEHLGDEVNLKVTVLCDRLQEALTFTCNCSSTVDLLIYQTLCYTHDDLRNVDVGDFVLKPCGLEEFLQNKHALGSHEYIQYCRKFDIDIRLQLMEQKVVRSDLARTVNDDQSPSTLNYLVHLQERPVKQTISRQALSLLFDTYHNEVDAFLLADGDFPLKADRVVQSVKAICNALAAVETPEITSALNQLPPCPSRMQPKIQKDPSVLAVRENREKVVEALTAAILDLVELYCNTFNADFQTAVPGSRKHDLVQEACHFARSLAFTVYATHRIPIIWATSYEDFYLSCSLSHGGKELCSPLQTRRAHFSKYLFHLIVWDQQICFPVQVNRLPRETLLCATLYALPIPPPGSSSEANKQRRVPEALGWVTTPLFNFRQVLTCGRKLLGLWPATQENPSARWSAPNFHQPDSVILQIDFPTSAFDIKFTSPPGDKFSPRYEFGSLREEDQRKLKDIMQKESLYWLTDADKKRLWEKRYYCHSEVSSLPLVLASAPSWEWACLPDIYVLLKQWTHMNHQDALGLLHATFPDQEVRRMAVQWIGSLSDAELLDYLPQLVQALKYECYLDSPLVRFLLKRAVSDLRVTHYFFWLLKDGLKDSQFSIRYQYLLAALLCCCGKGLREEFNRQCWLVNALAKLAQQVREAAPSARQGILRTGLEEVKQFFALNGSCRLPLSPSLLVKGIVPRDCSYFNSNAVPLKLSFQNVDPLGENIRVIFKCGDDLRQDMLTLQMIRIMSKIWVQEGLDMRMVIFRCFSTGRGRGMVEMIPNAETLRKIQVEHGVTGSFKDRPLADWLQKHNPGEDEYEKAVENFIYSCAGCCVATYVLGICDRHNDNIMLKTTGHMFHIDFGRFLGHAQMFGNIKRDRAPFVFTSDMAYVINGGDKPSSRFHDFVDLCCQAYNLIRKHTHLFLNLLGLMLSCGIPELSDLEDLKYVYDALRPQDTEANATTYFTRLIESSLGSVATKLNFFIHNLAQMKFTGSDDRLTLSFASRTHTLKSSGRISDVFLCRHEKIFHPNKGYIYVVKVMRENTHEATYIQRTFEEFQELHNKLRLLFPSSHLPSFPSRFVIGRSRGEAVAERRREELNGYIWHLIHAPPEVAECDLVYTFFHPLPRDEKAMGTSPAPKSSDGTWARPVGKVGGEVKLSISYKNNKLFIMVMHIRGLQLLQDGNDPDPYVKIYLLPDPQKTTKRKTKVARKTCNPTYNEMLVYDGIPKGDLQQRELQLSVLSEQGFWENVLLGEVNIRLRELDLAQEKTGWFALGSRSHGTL
# UniProt O76039, sequence (whole entry, looked up): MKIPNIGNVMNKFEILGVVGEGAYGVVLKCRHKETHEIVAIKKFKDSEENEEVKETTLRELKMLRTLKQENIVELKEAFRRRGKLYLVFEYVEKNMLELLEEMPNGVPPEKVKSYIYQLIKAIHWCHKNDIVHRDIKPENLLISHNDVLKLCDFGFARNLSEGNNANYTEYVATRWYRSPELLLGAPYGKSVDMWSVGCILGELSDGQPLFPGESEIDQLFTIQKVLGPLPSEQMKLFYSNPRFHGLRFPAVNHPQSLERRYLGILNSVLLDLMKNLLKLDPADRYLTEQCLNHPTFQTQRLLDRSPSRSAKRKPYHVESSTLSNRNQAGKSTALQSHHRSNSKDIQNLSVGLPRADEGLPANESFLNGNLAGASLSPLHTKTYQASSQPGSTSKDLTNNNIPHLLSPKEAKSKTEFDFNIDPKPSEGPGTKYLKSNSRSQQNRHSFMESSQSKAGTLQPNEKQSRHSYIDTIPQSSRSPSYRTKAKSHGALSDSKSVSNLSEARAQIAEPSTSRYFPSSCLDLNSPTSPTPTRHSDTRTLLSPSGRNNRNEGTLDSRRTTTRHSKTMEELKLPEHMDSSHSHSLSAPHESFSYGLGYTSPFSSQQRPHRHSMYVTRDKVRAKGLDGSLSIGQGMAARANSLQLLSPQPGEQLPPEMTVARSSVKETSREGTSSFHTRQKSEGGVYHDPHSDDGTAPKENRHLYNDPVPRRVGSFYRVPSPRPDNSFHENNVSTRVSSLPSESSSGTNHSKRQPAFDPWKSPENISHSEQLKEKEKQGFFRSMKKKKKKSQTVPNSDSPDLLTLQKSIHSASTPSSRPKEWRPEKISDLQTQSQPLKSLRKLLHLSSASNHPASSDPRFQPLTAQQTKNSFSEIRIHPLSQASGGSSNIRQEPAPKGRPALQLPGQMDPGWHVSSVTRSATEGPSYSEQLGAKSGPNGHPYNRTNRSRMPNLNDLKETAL
# UniProt Q86Z02, sequence (whole entry, looked up): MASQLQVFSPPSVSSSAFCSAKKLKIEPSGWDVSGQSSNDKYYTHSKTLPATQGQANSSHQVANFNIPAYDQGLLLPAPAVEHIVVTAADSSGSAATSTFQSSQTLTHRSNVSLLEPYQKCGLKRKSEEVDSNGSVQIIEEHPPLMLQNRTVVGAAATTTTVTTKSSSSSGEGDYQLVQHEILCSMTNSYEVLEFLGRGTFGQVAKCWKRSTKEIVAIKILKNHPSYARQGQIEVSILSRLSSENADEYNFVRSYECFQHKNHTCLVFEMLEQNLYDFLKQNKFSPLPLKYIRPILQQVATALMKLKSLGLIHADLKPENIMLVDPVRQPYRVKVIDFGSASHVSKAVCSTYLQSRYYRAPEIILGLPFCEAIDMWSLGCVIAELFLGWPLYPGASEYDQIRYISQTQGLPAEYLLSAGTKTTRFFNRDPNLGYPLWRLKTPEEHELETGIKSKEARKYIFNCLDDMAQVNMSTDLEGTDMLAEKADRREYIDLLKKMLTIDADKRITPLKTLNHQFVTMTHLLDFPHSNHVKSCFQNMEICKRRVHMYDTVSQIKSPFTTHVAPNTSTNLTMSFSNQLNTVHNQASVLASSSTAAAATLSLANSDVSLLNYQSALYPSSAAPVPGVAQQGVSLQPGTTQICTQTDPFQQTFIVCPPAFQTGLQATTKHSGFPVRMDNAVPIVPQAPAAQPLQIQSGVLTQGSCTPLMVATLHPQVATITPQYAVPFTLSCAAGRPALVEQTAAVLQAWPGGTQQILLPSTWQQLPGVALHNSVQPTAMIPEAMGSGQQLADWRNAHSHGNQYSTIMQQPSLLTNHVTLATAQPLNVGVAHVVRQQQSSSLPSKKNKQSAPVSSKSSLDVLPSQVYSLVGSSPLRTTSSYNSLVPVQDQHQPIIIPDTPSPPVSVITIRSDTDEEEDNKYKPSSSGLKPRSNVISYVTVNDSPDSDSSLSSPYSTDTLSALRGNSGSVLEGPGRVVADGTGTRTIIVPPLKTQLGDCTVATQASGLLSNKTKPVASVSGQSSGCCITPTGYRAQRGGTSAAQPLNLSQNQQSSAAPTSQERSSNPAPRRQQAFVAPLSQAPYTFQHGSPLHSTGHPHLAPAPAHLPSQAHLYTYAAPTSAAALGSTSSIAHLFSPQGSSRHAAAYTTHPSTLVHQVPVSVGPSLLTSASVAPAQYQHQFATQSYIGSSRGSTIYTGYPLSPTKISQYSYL
# UniProt Q99986, sequence (whole entry, looked up): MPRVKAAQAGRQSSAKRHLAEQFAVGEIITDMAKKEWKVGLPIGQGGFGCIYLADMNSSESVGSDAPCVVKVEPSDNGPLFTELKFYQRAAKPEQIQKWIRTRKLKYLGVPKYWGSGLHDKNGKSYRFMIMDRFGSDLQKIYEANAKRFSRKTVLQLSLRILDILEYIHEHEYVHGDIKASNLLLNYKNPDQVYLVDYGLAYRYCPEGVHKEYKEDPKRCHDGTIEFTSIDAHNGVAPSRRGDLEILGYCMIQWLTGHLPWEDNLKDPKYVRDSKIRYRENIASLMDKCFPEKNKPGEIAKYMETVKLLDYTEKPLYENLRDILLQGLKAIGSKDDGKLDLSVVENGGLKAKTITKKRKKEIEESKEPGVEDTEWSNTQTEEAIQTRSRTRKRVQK
# UniProt Q6XUX3, sequence (whole entry, looked up): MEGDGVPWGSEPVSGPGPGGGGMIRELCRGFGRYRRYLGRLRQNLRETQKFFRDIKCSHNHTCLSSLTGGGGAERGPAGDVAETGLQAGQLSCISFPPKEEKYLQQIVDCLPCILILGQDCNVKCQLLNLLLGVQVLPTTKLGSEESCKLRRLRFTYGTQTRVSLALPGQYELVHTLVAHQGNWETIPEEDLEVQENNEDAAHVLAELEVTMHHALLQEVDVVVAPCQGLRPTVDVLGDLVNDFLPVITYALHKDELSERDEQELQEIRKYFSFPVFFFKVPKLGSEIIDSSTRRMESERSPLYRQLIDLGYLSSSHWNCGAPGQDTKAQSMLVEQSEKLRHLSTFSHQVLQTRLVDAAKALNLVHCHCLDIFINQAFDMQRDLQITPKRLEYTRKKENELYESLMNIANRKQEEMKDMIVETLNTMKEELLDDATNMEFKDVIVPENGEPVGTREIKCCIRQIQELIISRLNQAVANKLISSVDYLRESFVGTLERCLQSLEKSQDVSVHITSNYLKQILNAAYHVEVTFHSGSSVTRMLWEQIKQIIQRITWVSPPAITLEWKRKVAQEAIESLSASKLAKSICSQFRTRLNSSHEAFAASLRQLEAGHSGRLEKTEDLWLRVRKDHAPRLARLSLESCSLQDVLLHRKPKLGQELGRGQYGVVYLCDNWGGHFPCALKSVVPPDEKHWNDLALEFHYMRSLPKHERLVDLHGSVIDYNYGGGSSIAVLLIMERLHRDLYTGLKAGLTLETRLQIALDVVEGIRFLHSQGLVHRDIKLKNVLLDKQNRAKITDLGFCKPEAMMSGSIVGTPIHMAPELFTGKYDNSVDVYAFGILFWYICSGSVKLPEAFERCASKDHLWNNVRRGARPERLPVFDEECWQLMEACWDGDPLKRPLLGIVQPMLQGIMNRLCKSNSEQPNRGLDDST

# Sample 1 — target: CEP164, C-terminal peptide (human); method: DHFR complementation, deep sequencing; sample: yeast; reference: wild type; reading: higher = weaker binding
# Notes: single substitutions, model-inferred values
# Starting sequence: PDZK1, PDZ domain 2 (human); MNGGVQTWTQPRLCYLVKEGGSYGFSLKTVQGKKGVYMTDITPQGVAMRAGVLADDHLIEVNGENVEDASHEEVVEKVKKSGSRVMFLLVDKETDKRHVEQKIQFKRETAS; partner HNRVKVYRF
Substitution,binding free energy change
V99W,-0.135 kcal/mol
E100L,-0.076 kcal/mol
V85N,1.44 kcal/mol
E67W,0.154 kcal/mol
D68I,0.226 kcal/mol
M86V,-0.0609 kcal/mol
L27K,0.873 kcal/mol
T109N,-0.164 kcal/mol

# Sample 2 — effect on: enzyme activity; mode: inhibitor; concentration: 0.5 µM; reference: control
# Structure (SMILES): CS(=O)(=O)CCNCc1ccc(-c2ccc3ncnc(Nc4ccc(OCc5cccc(F)c5)c(Cl)c4)c3c2)o1
target,remaining activity [%]
"Mitogen-activated protein kinase kinase kinase 9 (MAP3K9, Homo sapiens, UniProt P80192)",112
"Serine/threonine-protein kinase VRK1 (VRK1, Homo sapiens, UniProt Q99986)",101
"Platelet-derived growth factor receptor beta (PDGFRB, Homo sapiens, UniProt P09619)",92
"Dual serine/threonine and tyrosine protein kinase (DSTYK, Homo sapiens, UniProt Q6XUX3)",108
"Serine/threonine-protein kinase TAO1 (TAOK1, Homo sapiens, UniProt Q7L7X3)",98.8
"Activin receptor type-1 (ACVR1, Homo sapiens, UniProt Q04771)",106

# Sample 3 — method: RNAcompete; form: RNA; sample: in vitro; concentration: 20 nM; notes: 7-mer, probes averaged, single round; reference: mean of 7-mers; reading: higher = stronger binding
# Target: PABPC1L2, full length, GST fusion (mouse, UniProt A0ABA7IW68)
# Target sequence (chain): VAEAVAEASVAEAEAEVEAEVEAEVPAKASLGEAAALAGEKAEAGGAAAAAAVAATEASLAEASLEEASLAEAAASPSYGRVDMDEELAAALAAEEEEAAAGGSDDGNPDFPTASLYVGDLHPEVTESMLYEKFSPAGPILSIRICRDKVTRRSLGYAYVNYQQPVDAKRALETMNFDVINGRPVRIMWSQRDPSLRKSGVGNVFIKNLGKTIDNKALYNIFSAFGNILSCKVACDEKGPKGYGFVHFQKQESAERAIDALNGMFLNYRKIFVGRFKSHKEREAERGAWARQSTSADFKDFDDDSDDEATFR
Strand,7-mer Z-score
UAUGGGC,0.0424
CGCUGUU,-0.411
ACUCACU,-0.248
ACGCGAU,-0.0718
UCAGUGC,-0.277
AUUAGCA,-0.00833
CUCUCAA,-0.22
CGCGCCC,-0.385

# Sample 4 — effect on: cell-free assay; method: competition with immobilised ligand; concentration: 1 µM
# Structure (SMILES): COc1cc(-c2cn(C3CCc4c(F)cccc4N(CC(F)(F)F)C3=O)nn2)ccc1-n1cnc(C)c1 (stereo not drawn)
target,remaining binding [%]
"SRSF protein kinase 2 (SRPK2, Homo sapiens, UniProt P78362)",100
"Serine/threonine-protein kinase DCLK3 (DCLK3, Homo sapiens, UniProt Q9C098)",100
"Homeodomain-interacting protein kinase 1 (HIPK1, Homo sapiens, UniProt Q86Z02)",100
"Cyclin-dependent kinase-like 5 (CDKL5, Homo sapiens, UniProt O76039)",91
"Phosphatidylinositol 4-phosphate 3-kinase C2 domain-containing subunit beta (PIK3C2B, Homo sapiens, UniProt O00750)",100
